Experimental data of several laboratories.
Each line is one published result; not all experiments were run side by side. Values joined by “and” are separate records of one study, mostly repeats; a detail may differ. Numbers after ± are the reported error.

NC/C(=C\F)COc1cccc(Cn2c(=S)[nH]c(=O)c3[nH]cnc32)c1 has a tissue concentration of 65 ng/mL (C57BL/6J mice, heart; oral, 15 mg/kg single, 6 h).
With C[C@H](NC(=O)[C@H](CCC(N)=O)NC(=O)[C@H](C)NC(=O)[C@H](CCCNC(=N)N)NC(=O)[C@H](CCC(N)=O)NC(=O)[C@H](C)NC(=O)[C@H](CCCNC(=N)N)NC(=O)[C@H](CCC(N)=O)NC(=O)[C@H](C)NC(=O)[C@H](CCC(N)=O)NC(=O)[C@H](CCCNC(=N)N)NC(=O)[C@H](C)NC(=O)[C@H](CCC(N)=O)NC(=O)[C@H](CCCNC(=N)N)NC(=O)[C@H](C)NC(=O)[C@H](CCC(N)=O)NC(=O)[C@H](C)NC(=O)[C@H](CCCNC(=N)N)NC(=O)[C@H](CCC(N)=O)NC(=O)[C@H](C)NC(=O)[C@H](CCCNC(=N)N)NC(=O)[C@H](CO)NC(=O)[C@H](Cc1ccc(O)c(I)c1)NC(=O)CNC(=O)CNC(=O)CN)C(=O)N[C@@H](CCCNC(=N)N)C(=O)N[C@@H](CCC(N)=O)C(=O)N[C@@H](C)C(=O)N[C@@H](CCCNC(=N)N)C(=O)N[C@@H](CCC(N)=O)C(=O)O [iodine-125 labelled] the tissue uptake was 8.3 %ID/g (H2/IL-6 transgenic BALB/c mice, both sexes, upper intestine; intravenous, 4 h).
O=C[C@H]([18F])[C@@H](O)[C@H](O)[C@H](O)CO has a tissue uptake of 1.02 ± 0.15 %ID/g (Kunming mice, turpentine inflammation, blood; intravenous, 0.74 MBq, 60 min).
The tissue concentration of N=C(N)NCCC[C@H](NCC(=O)[C@@H](O)[C@H](O)[C@H](O)CO)C(=O)O is reported as 4 ± 2 pmol/mg tissue (UPLC-MS/MS; C57BL/6J mice, hippocampus; intraperitoneal, dose not given, 15 min).
COCCCOc1cc2c(cc1OC)-c1cc(=O)c(C(=O)O)cn1[C@H](C(C)C)C2 has a tissue concentration of > 500 ng/g and < 1000 ng/g (CD-1 mice, sciatic nerve; oral, 10 mg/kg).
CC(C)C[C@H](NC(=O)[C@@H]1COCCCCCC(=O)N2C[C@H](F)C[C@H]2C(=O)N1)C(=O)[C@@]1(C)CO1 — result for tissue concentration: “not detected” (BALB/c mice, lung; intravenous bolus, 40 mg/kg, 2 h).
CC(C)NCCCC[C@@H]1NC(=O)[C@H](Cc2ccc(O)cc2)NC(=O)[C@H](Cc2ccccc2)NC(=O)CC[C@H](C(=O)N[C@@H](CCCCNC(C)C)C(=O)N[C@@H](CCCCNC(=O)[C@H](CCC(=O)O)NC(=O)[C@H](CCC(=O)O)NC(=O)[C@H](CCC(=O)O)NC(=O)CN2CCN(CC(=O)O)CCN(CC(=O)O)CCN(CC(=O)O)CC2)C(N)=O)NC(=O)CNC(=O)[C@H](Cc2ccc3ccccc3c2)NC(=O)[C@@H](CCCNC(=N)N)NC1=O [gallium-68 labelled] has a tissue uptake of 0.19 %ID/g (ex vivo biodistribution; male mice, PC-3 xenograft, testes; intravenous, 1 h post-injection).
The tissue uptake of O=C(CCCCCCC(=O)Nc1ccc(CC[18F])cc1)NO is reported as 1.4 ± 0.3 %ID/g (athymic nu/nu male mice, LNCaP xenograft, muscle; intravenous, 1 h).
Under tissue concentration, OCc1nc2ccc(NCc3ccc(C(F)(F)F)cc3)cc2[nH]1 is recorded as “not detected” (Balb/c mice, male, heart; intravenous, 1 mg/kg, 48 h).
